Published values of several laboratories.

Compound	test	test system	conditions	how to read	endpoint	value
COc1cc(Nc2ncc3c(n2)-c2ccc(Cl)cc2C(c2c(F)cccc2OC)=NC3)ccc1C(=O)O	–	cancer patients	oral, dose not given, all grades any attribution, with: pembrolizumab	–	patients with back pain	17%
C=CC(=O)NC1CCN(c2ncc3ncnc(Nc4ccc(Oc5ccc6c(c5)ncn6C)c(C)c4)c3n2)CC1	–	male patients	oral, dose not given, on-treatment adverse events	–	patients with eye pain	0%
CNC(=O)c1cc(Oc2ccc(NC(=O)Nc3cc(C(C)(C)C)nn3-c3ccc4ncccc4c3)c(F)c2)ccn1	–	patients	oral, dose not given, cycles 1 and 2, Medium AUC subgroup	–	patients with nervous system disorders	43%
Cc1cc(NC2CCN(C(=O)OC3CCN(C(=O)/C=C/CN(C)C)C3)CC2)n2ncc(C(C)C)c2n1 (stereo not shown)	Phase I dose escalation CTCAE v4.0, measured: small intestinal obstruction	patients with advanced solid tumours	dose not given, TIW dosing grade 3 or higher	–	patients with adverse event	0%
O=C(Nc1nc2cccc(-c3ccc(CN4CCS(=O)(=O)CC4)cc3)n2n1)C1CC1	measured: angina pectoris	rheumatoid arthritis patients	oral, 150 mg once daily, 4 weeks, any relatedness	–	patients with adverse event	0%
COc1ccc([C@@H](O)c2cc(-c3ncnc4cc(N5CCOCC5)ccc34)c(F)cc2Cl)nn1	–	locally advanced rectal cancer patients	50 mg, drug-related adverse events, with: capecitabine and radiotherapy	–	patients with fatigue	100%
CNC(=O)c1ccc(-c2cnc3ncc(Cc4ccc5ncccc5c4)n3n2)cc1F	measured: Constipation, all grades	hepatocellular carcinoma patients	oral, 600 mg twice daily, expansion cohort, any causality	–	patients with adverse event	18%
C=CC(=O)Nc1cc(Nc2nccc(-c3cn(C)c4ccccc34)n2)c(OC)cc1N(C)CCN(C)C	measured: treatment-related grade ≥3 Paronychia	EGFR-mutant MET-altered NSCLC	oral, dose not given, all	–	patients with adverse events	1%
NC(=O)N1c2ccccc2C=Cc2ccccc21	–	male patients	oral, dose not given, on-treatment adverse events	–	patients with muscle twitching	7%
FC(F)(F)c1ccc(CNc2ccc(Cc3c[nH]c4ncc(Cl)cc34)cn2)cn1	measured: at least 1 adverse event	advanced solid tumour patients	oral, 1000 mg/day, all grades, all cohorts	–	patients with treatment-related adverse event	92%
CCOc1c([C@H](C)n2nc(C)c3c(N)ncnc32)cc(Cl)c(F)c1[C@@H]1CNC(=O)C1	measured: QTcF change above 60 ms	previously treated B-cell malignancy	oral, 10 mg once daily, overall population	relative to: baseline	patients	0%
C[C@@H](Nc1cc(F)cc(F)c1)c1cc(C(=O)N(C)C)cc2c(=O)cc(N3CCOCC3)oc12	measured: Tachycardia	advanced solid tumour patients	oral, dose not given, dose finding	–	patients discontinuing for AE	0%
C[C@@H](c1ccc2nccn2c1)n1nnc2ncc(-c3cnn(C)c3)nc21	measured: treatment-related grade ≥3 Diarrhea	EGFR-mutant MET-altered NSCLC	oral, dose not given, all	–	patients with adverse events	1%

Excerpt of the above:
Compound	test	test system	conditions	how to read	endpoint	value
NC(=O)N1c2ccccc2C=Cc2ccccc21	–	male patients	oral, dose not given, on-treatment adverse events	–	patients with muscle twitching	7%
FC(F)(F)c1ccc(CNc2ccc(Cc3c[nH]c4ncc(Cl)cc34)cn2)cn1	measured: at least 1 adverse event	advanced solid tumour patients	oral, 1000 mg/day, all grades, all cohorts	–	patients with treatment-related adverse event	92%
